Experimental data of several laboratories.
Parts stem from different laboratories: compare values within a part only. “And” joins repeats or separate records; there may be more than shown. ± gives the spread as reported.

Series 1
SMILES: C[C@H](c1ccnc(Nc2nc3ccc(-c4cc(N(C)C)ncn4)cc3[nH]2)c1)N1CCN(C(=O)CC(F)(F)F)CC1
MAP2K5: Dual specificity mitogen-activated protein kinase kinase 5 (MAP2K5, Homo sapiens, UniProt Q13163)
Sequence of UniProt Q13163 (whole entry, looked up): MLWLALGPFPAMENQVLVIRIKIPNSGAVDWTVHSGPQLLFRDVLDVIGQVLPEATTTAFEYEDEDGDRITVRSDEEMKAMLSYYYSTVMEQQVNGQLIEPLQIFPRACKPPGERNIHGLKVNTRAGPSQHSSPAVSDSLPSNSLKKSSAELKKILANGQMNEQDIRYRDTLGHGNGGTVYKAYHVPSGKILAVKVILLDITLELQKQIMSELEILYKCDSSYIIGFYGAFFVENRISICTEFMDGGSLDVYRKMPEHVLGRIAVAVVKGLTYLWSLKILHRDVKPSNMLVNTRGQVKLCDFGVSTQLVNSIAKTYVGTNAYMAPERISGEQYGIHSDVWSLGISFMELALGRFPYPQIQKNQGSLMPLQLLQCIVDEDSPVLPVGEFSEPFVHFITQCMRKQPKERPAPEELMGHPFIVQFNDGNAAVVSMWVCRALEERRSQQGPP
MAP3K19: Mitogen-activated protein kinase kinase kinase 19 (MAP3K19, Homo sapiens, UniProt Q56UN5)
Sequence of UniProt Q56UN5 (whole entry, looked up): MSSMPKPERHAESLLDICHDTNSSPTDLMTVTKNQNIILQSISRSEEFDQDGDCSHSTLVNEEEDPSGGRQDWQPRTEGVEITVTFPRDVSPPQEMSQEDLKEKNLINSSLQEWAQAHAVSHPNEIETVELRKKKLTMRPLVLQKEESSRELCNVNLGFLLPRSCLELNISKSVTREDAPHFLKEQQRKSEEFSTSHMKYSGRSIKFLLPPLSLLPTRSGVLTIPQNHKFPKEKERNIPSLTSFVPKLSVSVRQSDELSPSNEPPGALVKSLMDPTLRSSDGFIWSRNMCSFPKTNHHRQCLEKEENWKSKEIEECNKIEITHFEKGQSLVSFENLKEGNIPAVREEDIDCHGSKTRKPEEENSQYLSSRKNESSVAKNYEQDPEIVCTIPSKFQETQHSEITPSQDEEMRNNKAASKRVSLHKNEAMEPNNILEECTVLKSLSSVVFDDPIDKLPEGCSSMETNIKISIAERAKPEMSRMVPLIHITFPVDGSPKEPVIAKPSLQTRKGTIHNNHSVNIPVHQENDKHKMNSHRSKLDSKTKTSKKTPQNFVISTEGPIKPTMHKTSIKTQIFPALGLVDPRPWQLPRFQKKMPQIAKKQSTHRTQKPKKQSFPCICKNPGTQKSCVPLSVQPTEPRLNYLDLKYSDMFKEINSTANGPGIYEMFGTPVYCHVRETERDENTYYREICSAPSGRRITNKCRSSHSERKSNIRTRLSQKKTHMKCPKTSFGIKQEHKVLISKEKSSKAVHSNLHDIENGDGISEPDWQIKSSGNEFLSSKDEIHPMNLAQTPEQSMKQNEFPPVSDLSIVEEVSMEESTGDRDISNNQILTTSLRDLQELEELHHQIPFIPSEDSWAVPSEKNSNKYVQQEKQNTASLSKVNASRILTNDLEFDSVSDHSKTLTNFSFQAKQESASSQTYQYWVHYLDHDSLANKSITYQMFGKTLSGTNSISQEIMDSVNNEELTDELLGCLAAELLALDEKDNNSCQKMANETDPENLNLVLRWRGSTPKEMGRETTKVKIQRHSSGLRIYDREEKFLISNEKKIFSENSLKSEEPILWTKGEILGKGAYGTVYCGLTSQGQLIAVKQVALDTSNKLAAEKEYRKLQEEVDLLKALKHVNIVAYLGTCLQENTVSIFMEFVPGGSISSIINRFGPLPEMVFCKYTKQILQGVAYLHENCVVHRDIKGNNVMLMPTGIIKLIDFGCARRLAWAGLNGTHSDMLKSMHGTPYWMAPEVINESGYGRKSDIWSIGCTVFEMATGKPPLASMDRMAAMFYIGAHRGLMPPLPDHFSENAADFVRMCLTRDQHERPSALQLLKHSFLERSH
STK17A: Serine/threonine-protein kinase 17A (STK17A, Homo sapiens, UniProt Q9UEE5)
Sequence of UniProt Q9UEE5 (whole entry, looked up): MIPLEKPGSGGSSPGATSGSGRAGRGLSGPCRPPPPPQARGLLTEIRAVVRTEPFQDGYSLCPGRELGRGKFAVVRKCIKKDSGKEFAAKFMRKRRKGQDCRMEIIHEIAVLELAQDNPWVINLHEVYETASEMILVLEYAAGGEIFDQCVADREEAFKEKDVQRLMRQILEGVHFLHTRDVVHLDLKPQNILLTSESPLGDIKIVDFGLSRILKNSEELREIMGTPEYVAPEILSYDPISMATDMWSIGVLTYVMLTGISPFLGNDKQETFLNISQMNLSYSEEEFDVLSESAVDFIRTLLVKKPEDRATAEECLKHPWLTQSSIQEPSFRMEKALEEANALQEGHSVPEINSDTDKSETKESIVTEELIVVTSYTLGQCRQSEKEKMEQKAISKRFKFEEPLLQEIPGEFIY
IKBKE: Inhibitor of nuclear factor kappa-B kinase subunit epsilon (IKBKE, Homo sapiens, UniProt Q14164)
Sequence of UniProt Q14164 (whole entry, looked up): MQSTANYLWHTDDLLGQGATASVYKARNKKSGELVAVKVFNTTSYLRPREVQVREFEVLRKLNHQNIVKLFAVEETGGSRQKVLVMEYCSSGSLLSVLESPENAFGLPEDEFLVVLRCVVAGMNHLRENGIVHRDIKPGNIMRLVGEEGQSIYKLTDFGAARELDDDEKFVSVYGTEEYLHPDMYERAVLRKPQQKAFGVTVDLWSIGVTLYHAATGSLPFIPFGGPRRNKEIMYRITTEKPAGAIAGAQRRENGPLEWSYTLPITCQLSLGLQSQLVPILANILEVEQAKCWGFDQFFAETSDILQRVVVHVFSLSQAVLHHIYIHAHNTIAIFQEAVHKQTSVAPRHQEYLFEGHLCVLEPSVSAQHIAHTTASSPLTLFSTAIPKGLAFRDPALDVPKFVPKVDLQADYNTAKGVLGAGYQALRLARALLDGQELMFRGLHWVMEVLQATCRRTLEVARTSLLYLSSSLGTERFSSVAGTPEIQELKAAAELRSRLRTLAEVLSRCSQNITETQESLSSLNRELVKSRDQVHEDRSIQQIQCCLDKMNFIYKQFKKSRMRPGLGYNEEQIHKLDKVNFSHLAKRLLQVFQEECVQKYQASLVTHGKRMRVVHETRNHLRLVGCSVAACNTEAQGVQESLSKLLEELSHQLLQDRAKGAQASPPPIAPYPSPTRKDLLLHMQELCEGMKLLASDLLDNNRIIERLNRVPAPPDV
MAP2K5; target engagement, NanoBRET; live cells — EC50: greater than 50 µM.
The EC50 was greater than 50 µM (MAP3K19; target engagement, NanoBRET; live cells).
The EC50 was 15.7 µM and 31.2 µM (FLT3 (Homo sapiens, UniProt P36888); target engagement, NanoBRET; live cells).
STK17A; target engagement in cells, BRET — EC50: 4.8 µM.
IKBKE; target engagement in cells, BRET — EC50: 0.42 µM.
IKBKE; target engagement, NanoBRET; live cells — EC50: 0.176 µM.
For MAP2K5; target engagement, NanoBRET: EC50 read greater than 50 µM.
For MAP3K19; target engagement in cells, BRET: EC50 read greater than 50 µM.
MAP2K5; target engagement in cells, BRET — EC50: greater than 50 µM.
It gave 4.8 ± 2 µM for EC50 (STK17A; target engagement, NanoBRET).
The EC50 was greater than 50 µM (MAP3K19; target engagement, NanoBRET).

Series 2 — cell line: HaCaT; concentration: 100 µM; time: 18 h
`O=C(O)CCc1nc(-c2ccccc2)c(-c2ccccc2)o1` gave a viability of 99.8%.
With `O=c1ccc2ccccc2o1` the viability was 100%.
For `COc1ccc2cccc(CCNC(C)=O)c2c1`, the viability was 84.2%.
`COc1cc([C@@H]2c3cc4c(cc3[C@@H](O[C@@H]3O[C@@H]5CO[C@@H](c6cccs6)O[C@H]5[C@H](O)[C@H]3O)[C@H]3COC(=O)[C@H]23)OCO4)cc(OC)c1O` has a viability of 36%.
The viability of `CC(c1cc2ccccc2s1)N(O)C(N)=O` (stereo not drawn) is reported as 94.6%.
With `Nc1nc2c(c(=O)[nH]1)N(C=O)C(CNc1ccc(C(=O)N[C@@H](CCC(=O)O)C(=O)O)cc1)CN2` (stereo partly drawn) the viability was 92.7%.
The viability of `COc1cc2c(Nc3ccc(Br)cc3F)ncnc2cc1OCC1CCN(C)CC1` is reported as 16.3%.
With `Nc1ccc(S(=O)(=O)Nc2ncccn2)cc1` the viability was 85.5%.
`CC(=O)Nc1c(I)c(NC(C)=O)c(I)c(C(=O)O)c1I` gave a viability of 117%.
For `OCc1ccc(O[C@@H]2O[C@H](CO)[C@@H](O)[C@H](O)[C@H]2O)cc1`, the viability was 111%.
`CC(C)[C@H](N)C(=O)OCC(CO)OCn1cnc2c(=O)nc(N)[nH]c21` (stereo partly drawn) has a viability of 107%.
With `O=C(/C=C/C=C/c1ccc2c(c1)OCO2)N1CCCCC1` the viability was 76.4%.
For `C#C[C@]1(O)CC[C@H]2[C@@H]3CCc4cc(O)ccc4[C@H]3CC[C@@]21C`, the viability was 29.4%.
`N=C(N)/N=C(\N)N1CCOCC1` gave a viability of 114%.
The viability of `C=CC(N)CCC(=O)O` (stereo not drawn) is reported as 93.4%.

Series 3 — species: human; medium: microsomes or S9; concentration: 2 µM; time: 0.5 h
With `CC(=O)c1c(NC2CCCc3ccccc32)[nH]c2c(C)cc(Cl)cc2c1=O` (stereo not drawn) the remaining compound was 3.93%.
`O=C1NC(=O)c2c1cc1ccccc1c2-c1ccccc1` has a remaining compound of 63.4%.
The remaining compound of `CCN(CC(=O)NC)C(=O)c1cc(C)c(C)c(S(=O)(=O)NC)c1` is reported as 80.5%.
With `O=C(O)c1sc(C(=O)O)c(OCCO)c1OCCO` the remaining compound was 58.1%.
For `CC(=O)c1ccc(N2CCOCC2)c(-c2cccc3c2OCC3)c1`, the remaining compound was 7.37%.
For `CC1(C)C(=O)Nc2ccc(S(=O)(=O)Nc3noc(-c4ccsc4)n3)cc21`, the remaining compound was greater than 100%.
`COn1c(-c2ccc(C(C)(C)C)cc2)cc2cc3cccccc-3c2c1=O` has a remaining compound of 11.5%.
For `CC(C)(C)OC(=O)N1CCO[C@H](Cn2nnc3ncc(Br)nc32)C1`, the remaining compound was 54.2%.
The remaining compound of `O=C(/C=C/c1ccc(O)cc1)NCCc1ccc(O)cc1` is reported as greater than 99%.
For `Cn1cc(-c2nn(S(=O)(=O)c3ccc(Br)s3)c(-c3cnn(C)c3)c2Cl)cn1`, the remaining compound was 0.412%.
With `COC(=O)c1c(CS(=O)(=O)c2ccccc2)n(S(=O)(=O)c2ccccc2)c2ccccc12` the remaining compound was 4.24%.
`c1ccc(-c2nc(-c3csc(-c4ccccc4)n3)cs2)cc1` gave a remaining compound of greater than 99%.
With `Cc1cnc(C(=O)N(CCC(=O)NC(C)C)CC2CCCO2)cn1` (stereo not drawn) the remaining compound was 64.4%.
`COc1ccccc1CCN1C(O)=c2ccccc2=NC12C(=O)Nc1ccccc12` (stereo not drawn) has a remaining compound of 1.2%.
With `COc1cc(=O)[nH]cc1C(=O)N1CCCC1c1ccnn1C` (stereo not drawn) the remaining compound was 88.5%.

Series 4 — observed: enzyme activity; mode: inhibitor; concentration: 0.5 µM; relative to: control
Target: Serine/threonine-protein kinase D2 (PRKD2, Homo sapiens, UniProt Q9BZL6)
Sequence of UniProt Q9BZL6 (whole entry, looked up): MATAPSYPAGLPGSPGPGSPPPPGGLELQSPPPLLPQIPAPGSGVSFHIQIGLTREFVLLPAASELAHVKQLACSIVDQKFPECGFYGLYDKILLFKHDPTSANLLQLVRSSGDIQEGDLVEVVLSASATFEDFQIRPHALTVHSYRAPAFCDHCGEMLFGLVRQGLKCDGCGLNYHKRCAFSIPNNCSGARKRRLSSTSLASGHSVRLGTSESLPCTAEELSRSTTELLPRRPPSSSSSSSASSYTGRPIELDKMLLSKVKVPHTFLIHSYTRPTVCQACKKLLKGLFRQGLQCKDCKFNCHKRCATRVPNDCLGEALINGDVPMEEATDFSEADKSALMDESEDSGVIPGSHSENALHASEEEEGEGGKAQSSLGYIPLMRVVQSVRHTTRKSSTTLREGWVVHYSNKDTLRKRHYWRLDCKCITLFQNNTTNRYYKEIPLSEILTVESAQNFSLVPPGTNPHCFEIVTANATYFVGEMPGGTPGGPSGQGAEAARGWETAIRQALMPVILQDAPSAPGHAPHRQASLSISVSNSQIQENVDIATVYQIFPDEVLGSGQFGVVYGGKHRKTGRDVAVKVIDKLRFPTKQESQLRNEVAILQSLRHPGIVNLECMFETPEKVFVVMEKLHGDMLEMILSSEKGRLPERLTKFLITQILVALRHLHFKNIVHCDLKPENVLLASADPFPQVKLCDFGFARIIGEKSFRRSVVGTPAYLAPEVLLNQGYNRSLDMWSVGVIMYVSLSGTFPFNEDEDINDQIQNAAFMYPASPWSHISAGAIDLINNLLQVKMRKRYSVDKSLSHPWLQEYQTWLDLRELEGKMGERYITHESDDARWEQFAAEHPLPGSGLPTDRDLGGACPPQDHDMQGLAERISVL
`CC(C)n1cnc2c(Nc3cccc(Cl)c3)nc(NCCO)nc21` has a remaining activity of 88.1%.
With `FC(F)(F)c1ccc(/C=C/c2nc(COc3ccc(CCCCn4ccnn4)cc3)co2)cc1` the remaining activity was 96.9%.
`Nc1nc(Nc2ccc(S(N)(=O)=O)cc2)nn1C(=S)Nc1c(F)cccc1F` has a remaining activity of 9.05%.
For `CC(C)(C)c1nc2c3cc[nH]c(=O)c3c3cc(F)ccc3c2[nH]1`, the remaining activity was 6.13%.
For `N#C/C(=C(/N)SC1C=CC=CC1)c1cccc(C(O)c2ccncc2)c1` (stereo not drawn), the remaining activity was 90%.
With `O=Nc1c(-c2c(O)[nH]c3ccccc23)[nH]c2ccccc12` the remaining activity was 89%.
`NC(=O)c1cccc(-c2cc(Nc3ccc(OC(F)(F)F)cc3)ncn2)c1` has a remaining activity of 102%.
For `Clc1ccc(Nc2nnc(Cc3ccncc3)c3ccccc23)cc1`, the remaining activity was 86%.
`CC(C)N(CCC(=O)c1ccc2ccccc2c1)Cc1ccccc1` has a remaining activity of 98.5%.
`O=C(c1ccccc1)c1ccc(N2CCOCC2)cc1O` has a remaining activity of 99.1%.
For `O=c1c(-c2ccc(F)cc2)c(-c2ccncc2)[nH]n1-c1ccc(Cl)cc1`, the remaining activity was 73.4%.
For `c1cc(-c2cnn3cc(-c4ccc(OCCN5CCCCC5)cc4)cnc23)ccn1`, the remaining activity was 88.3%.
With `CCN(CC)CCCCN1c2ccccc2Oc2ccc(Cl)cc21` the remaining activity was 105%.
For `O=C1NC(=O)/C(=C/c2ccc3c(c2)OC(F)(F)O3)S1`, the remaining activity was 91.5%.
The remaining activity of `CCCCc1c(-c2ccc(O)cc2)[nH]c2nccnc12` is reported as 95.3%.
`NC(=O)c1ccc(-c2nc(-c3ccc4c(c3)OCCO4)c(-c3ccccn3)[nH]2)cc1` gave a remaining activity of 83.4%.
With `C[C@@H](N)[C@H]1CC[C@H](C(=O)Nc2ccncc2)CC1` the remaining activity was 96.3%.
For `O=C(O)/C=C/c1cc(Br)c(Br)c(Br)c1Br`, the remaining activity was 71.6%.
`N#CC(c1ccnc(NCCc2cccnc2)n1)c1nc2ccccc2s1` (stereo not drawn) has a remaining activity of 79.2%.
`COc1cc2c(Nc3ccc(Br)cc3F)ncnc2cc1OCC1CCN(C)CC1` has a remaining activity of 92%.
`O=C1c2ccccc2-c2nc3nnnn3nc21` has a remaining activity of 91.7%.
`CNc1cc2c(Nc3cccc(Br)c3)ncnc2cn1` has a remaining activity of 86.4%.

Excerpt of the above (series 4):
`NC(=O)c1ccc(-c2nc(-c3ccc4c(c3)OCCO4)c(-c3ccccn3)[nH]2)cc1` gave a remaining activity of 83.4%.
With `C[C@@H](N)[C@H]1CC[C@H](C(=O)Nc2ccncc2)CC1` the remaining activity was 96.3%.
For `O=C(O)/C=C/c1cc(Br)c(Br)c(Br)c1Br`, the remaining activity was 71.6%.
`N#CC(c1ccnc(NCCc2cccnc2)n1)c1nc2ccccc2s1` (stereo not drawn) has a remaining activity of 79.2%.
`COc1cc2c(Nc3ccc(Br)cc3F)ncnc2cc1OCC1CCN(C)CC1` has a remaining activity of 92%.
`O=C1c2ccccc2-c2nc3nnnn3nc21` has a remaining activity of 91.7%.
`CNc1cc2c(Nc3cccc(Br)c3)ncnc2cn1` has a remaining activity of 86.4%.
